Assay results pooled from the literature.
Compare with care: the assays were run in different laboratories.
USP51: Ubiquitin carboxyl-terminal hydrolase 51 (USP51, Homo sapiens, UniProt Q70EK9)
UniProt Q70EK9, sequence (whole entry, looked up): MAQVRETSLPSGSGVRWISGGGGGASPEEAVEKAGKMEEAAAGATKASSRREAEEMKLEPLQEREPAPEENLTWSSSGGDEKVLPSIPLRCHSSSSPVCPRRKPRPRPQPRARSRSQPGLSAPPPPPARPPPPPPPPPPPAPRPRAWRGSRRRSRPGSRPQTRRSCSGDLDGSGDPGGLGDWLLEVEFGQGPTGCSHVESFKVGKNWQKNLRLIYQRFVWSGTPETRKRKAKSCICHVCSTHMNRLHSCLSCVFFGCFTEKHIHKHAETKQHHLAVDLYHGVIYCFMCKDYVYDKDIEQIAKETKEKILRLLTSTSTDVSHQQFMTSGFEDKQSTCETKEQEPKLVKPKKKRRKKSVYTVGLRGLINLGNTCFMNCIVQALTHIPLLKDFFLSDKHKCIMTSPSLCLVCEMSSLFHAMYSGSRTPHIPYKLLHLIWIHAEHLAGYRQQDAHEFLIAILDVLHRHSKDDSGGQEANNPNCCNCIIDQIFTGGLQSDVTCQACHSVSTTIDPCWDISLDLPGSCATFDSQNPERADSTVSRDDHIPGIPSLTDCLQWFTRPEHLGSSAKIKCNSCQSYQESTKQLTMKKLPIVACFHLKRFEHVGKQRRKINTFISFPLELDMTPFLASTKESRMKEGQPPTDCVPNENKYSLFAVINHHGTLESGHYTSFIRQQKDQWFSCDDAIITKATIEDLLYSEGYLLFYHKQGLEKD
MAP4K5: Mitogen-activated protein kinase kinase kinase kinase 5 (MAP4K5, Homo sapiens, UniProt Q9Y4K4)
UniProt Q9Y4K4, sequence (whole entry, looked up): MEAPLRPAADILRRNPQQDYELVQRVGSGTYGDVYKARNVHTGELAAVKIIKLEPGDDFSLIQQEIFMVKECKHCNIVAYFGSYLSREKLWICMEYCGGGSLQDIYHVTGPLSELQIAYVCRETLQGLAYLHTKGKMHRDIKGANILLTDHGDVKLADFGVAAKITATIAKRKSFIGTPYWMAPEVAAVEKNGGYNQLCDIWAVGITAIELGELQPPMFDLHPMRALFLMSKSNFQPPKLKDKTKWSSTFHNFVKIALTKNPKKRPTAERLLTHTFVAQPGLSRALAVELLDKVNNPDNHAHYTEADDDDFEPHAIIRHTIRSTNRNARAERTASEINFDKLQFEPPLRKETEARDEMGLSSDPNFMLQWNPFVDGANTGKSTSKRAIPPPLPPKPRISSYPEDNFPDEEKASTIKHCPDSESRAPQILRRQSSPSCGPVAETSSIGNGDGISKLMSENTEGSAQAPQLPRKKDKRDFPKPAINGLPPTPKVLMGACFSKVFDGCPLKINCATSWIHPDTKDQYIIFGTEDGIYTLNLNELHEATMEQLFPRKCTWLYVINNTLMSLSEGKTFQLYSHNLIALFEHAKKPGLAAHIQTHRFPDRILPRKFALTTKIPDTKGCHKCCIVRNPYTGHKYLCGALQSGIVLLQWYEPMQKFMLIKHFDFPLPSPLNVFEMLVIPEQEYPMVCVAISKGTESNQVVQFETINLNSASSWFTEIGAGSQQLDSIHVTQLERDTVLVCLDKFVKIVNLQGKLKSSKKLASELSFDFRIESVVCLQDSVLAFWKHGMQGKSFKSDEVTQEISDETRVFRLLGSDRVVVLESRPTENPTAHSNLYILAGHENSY
UniProt Q9UQL6, sequence (whole entry, looked up): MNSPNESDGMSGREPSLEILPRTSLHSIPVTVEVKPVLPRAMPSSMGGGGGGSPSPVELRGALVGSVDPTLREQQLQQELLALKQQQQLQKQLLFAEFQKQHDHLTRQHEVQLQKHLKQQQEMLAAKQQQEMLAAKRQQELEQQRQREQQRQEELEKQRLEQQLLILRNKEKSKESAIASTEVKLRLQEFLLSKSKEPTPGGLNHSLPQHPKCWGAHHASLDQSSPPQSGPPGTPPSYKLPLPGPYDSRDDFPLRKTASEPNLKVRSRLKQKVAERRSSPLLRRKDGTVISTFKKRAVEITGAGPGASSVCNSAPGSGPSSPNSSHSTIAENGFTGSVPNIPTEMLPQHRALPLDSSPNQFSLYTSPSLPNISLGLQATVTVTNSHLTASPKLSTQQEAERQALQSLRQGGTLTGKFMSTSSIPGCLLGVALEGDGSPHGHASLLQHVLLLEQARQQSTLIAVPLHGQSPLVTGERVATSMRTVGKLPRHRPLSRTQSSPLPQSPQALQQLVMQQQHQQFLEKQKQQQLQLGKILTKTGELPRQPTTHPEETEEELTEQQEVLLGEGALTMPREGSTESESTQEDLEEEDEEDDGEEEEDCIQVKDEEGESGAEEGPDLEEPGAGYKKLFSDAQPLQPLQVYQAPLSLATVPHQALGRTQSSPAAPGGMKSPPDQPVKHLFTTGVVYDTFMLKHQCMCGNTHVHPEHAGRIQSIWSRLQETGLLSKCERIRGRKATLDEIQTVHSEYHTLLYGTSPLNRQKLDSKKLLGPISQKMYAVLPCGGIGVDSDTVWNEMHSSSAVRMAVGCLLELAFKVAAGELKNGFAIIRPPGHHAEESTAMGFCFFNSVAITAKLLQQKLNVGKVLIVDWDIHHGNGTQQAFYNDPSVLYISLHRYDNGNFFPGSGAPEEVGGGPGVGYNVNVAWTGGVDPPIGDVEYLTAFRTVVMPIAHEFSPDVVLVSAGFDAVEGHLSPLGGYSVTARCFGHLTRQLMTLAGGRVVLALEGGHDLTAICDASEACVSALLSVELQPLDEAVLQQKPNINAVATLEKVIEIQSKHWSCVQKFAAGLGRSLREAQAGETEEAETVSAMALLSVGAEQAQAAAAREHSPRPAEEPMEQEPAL
UniProt Q9Y6E0, sequence (whole entry, looked up): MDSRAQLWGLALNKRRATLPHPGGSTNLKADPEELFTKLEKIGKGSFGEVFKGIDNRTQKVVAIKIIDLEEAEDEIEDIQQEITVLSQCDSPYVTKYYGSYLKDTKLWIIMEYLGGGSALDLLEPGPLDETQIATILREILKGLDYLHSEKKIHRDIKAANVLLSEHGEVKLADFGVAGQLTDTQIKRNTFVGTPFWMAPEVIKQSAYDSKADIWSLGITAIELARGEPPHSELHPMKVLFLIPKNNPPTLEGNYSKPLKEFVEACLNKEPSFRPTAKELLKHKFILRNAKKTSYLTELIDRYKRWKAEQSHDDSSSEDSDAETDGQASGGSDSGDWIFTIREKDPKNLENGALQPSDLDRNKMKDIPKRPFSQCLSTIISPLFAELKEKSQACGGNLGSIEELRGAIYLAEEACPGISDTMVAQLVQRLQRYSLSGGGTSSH
UniProt O75582, sequence (whole entry, looked up): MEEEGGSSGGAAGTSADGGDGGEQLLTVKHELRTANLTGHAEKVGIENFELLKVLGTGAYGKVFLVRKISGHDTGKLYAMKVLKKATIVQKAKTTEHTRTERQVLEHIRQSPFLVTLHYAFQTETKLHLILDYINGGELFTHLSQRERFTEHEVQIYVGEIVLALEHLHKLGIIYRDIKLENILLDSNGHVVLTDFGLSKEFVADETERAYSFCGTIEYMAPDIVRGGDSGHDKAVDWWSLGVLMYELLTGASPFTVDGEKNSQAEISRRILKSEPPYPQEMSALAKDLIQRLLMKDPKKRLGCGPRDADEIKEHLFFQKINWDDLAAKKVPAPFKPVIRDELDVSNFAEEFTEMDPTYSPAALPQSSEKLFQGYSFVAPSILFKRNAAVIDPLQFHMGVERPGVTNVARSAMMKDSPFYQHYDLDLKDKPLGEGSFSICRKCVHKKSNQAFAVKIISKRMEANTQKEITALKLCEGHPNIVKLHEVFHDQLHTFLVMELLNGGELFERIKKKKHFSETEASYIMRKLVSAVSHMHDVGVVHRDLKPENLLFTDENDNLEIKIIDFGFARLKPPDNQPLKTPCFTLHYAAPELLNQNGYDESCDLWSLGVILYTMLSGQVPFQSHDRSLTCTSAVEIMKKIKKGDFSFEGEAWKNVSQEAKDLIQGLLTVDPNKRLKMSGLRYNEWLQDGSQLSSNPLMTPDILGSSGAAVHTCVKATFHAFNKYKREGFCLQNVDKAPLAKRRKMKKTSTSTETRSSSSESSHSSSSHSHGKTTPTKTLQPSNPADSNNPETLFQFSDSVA
UniProt P35354, sequence (whole entry, looked up): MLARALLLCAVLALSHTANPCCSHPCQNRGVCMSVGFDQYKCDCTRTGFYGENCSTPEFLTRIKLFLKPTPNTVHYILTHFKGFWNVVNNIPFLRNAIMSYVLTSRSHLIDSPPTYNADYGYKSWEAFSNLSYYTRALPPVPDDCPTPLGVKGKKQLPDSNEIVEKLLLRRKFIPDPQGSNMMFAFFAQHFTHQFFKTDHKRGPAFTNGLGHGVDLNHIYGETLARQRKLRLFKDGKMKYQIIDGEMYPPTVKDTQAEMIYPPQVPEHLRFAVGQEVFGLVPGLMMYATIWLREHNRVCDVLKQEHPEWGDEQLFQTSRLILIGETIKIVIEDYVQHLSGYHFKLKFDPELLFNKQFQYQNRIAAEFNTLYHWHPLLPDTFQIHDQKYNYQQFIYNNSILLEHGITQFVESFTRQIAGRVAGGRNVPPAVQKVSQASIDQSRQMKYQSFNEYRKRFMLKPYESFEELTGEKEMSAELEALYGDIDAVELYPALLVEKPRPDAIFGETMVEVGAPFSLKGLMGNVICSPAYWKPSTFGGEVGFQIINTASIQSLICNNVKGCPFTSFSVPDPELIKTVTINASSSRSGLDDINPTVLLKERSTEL
UniProt Q00535, sequence (whole entry, looked up): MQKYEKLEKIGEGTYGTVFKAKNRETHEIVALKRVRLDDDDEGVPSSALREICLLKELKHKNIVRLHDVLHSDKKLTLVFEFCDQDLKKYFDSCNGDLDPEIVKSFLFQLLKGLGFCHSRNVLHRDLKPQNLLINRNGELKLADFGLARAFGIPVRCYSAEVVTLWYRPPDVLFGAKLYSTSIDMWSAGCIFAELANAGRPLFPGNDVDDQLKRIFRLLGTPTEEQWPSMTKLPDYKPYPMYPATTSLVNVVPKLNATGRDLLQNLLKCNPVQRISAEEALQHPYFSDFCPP
UniProt P00374, sequence (whole entry, looked up): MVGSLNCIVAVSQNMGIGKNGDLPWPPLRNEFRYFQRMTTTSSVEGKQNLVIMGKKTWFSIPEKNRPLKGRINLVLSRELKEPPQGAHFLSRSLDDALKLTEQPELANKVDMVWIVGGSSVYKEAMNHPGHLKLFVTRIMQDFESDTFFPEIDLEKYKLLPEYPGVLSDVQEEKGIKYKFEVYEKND

SMILES = O=C(/C=C/c1ccc(O)c(O)c1)O[C@H](Cc1ccc(O)c(O)c1)C(=O)O; target or system = USP51; assay = enzyme activity, inhibitor; conditions = 5 µM; measurement = inhibition; result = 45%
SMILES = CNc1ncc2c(/C=C/C(=O)N3CCC(OC)CC3)nn(Cc3cccc(C(F)(F)F)c3)c2n1; target or system = MAP4K5; assay = enzyme activity, inhibitor, radiometric; conditions = 1 µM; measurement = remaining activity; result = 117%
SMILES = O=C1c2c(O)cc(O)cc2O[C@H](c2cc(O)c(O)c(O)c2)[C@H]1O; target or system = USP51; assay = enzyme activity, inhibitor; conditions = 5 µM; measurement = inhibition; result = 100%
SMILES = C1=C/COCc2cc(ccc2OCCN2CCCC2)Nc2nccc(n2)-c2cccc(c2)COC/1; target or system = STK24 (Homo sapiens, UniProt Q9Y6E0); assay = cell-free assay; conditions = 0.1 µM; measurement = remaining signal; result = 99%
SMILES = COc1cccc(-c2n[nH]c(SCc3ccccn3)n2)c1OC; test system = male Sprague-Dawley rat, plasma; conditions = oral, 10 mg/kg, 24 h, single dose; measurement = concentration; result = 3.6 ng/mL
SMILES = COc1cc(-c2cncc3c2CN(C)Cc2cc(N4CCNCC4)ccc2-3)cc(OC)c1OC; target or system = MAP4K5; assay = enzyme activity, inhibitor; conditions = 1 µM; measurement = remaining activity; result = 94%
SMILES = OC[C@@H](O)[C@@H](O)[C@H](O)[C@H](O)CO; target or system = USP51; assay = enzyme activity, inhibitor; conditions = 5 µM; measurement = inhibition; result = 65%
SMILES = CCc1nn(C)c2nc(-c3ccc(C(=O)O)cc3)nc(NCc3ccc(F)cc3)c12; target or system = PDE10A (Homo sapiens, UniProt Q9Y233); assay = enzyme activity, inhibitor, radiometric; conditions = 10 µM; measurement = inhibition; result = 36.5%
SMILES = O=C(NO)c1cc(F)cc(OS(=O)(=O)Oc2ccccc2)c1; target or system = HDAC5 (Homo sapiens, UniProt Q9UQL6); assay = enzyme activity, inhibitor, fluorescence; conditions = 10 µM; measurement = inhibition; result = 27%
SMILES = C=CCS[S+]([O-])CC=C (stereo not drawn); target or system = USP51; assay = enzyme activity, inhibitor; conditions = 5 µM; measurement = inhibition; result = 0%
SMILES = CCCN1C[C@H](CSC)C[C@@H]2c3cccc4[nH]cc(c34)C[C@H]21; target or system = SCN1A (Homo sapiens, UniProt P35498); assay = ion current, inhibitor, patch clamp; conditions = 10 µM; measurement = inhibition; result = 61.4%
SMILES = C#Cc1cc(-c2cc(Nc3nc(N[C@@H](C)c4ccc(F)cn4)ncc3Cl)n[nH]2)ccc1C=O; target or system = RPS6KA5 (Homo sapiens, UniProt O75582); assay = enzyme activity, inhibitor; conditions = 0.2 µM; measurement = inhibition; result = 43.5%
SMILES = NC/C(=C\F)COc1cccc(Cn2c(=S)[nH]c(=O)c3[nH]cnc32)c1; target or system = Myeloperoxidase (MPO, Homo sapiens, UniProt P05164); assay = enzyme activity, inhibitor, fluorescence; conditions = 1 µM; measurement = inhibition; result = 99.1%
SMILES = Fc1ccc(NC(=S)NN=Cc2ccc(N3CCCCC3)cc2)cc1; target or system = DHFR (Homo sapiens, UniProt P00374); assay = enzyme activity, inhibitor; conditions = 500 µM; measurement = inhibition; result = 89.2%
SMILES = O=c1c(O[C@@H]2O[C@H](CO)[C@@H](O)[C@H](O)[C@H]2O)c(-c2ccc(O)c(O)c2)oc2cc(O)cc(O)c12; target or system = USP51; assay = enzyme activity, inhibitor; conditions = 5 µM; measurement = inhibition; result = 20%
SMILES = N#CC[C@@]12C[C@@H]1[C@@H](n1cnc3c(Nc4ccccc4)nc(C#Cc4ccc(Cl)s4)nc31)[C@H](O)[C@@H]2O; target or system = SLC6A4 (Homo sapiens, UniProt P31645); assay = ligand displacement, radioligand; conditions = 10 µM; measurement = inhibition; result = 17%
SMILES = CN1CC(Oc2cnc(C#N)cc2-c2ccn3nc(NC(=O)C4CC4)cc3c2)C1; target or system = EPHA7 (Homo sapiens, UniProt Q15375); assay = enzyme activity, inhibitor; conditions = 1 µM; measurement = inhibition; result = -3%
SMILES = Cc1cc([C@@H](C)Nc2ccccc2C(=O)O)c2nc(N3CCC(F)(F)CC3)c(C#N)c(=O)n2c1; target or system = MAP3K4 (Homo sapiens, UniProt Q9Y6R4); assay = binding, competition with immobilised ligand; conditions = 10 µM; measurement = remaining binding; result = 100%
SMILES = CC(C)(C)c1ccc(OS(=O)(=O)Oc2cccc(C(=O)NO)c2)cc1; target or system = HDAC1 (Homo sapiens, UniProt Q13547); assay = enzyme activity, inhibitor, fluorescence; conditions = 10 µM; measurement = inhibition; result = 50%
SMILES = COc1cc([C@H]2OC[C@H]3[C@@H]2CO[C@@H]3c2cc(OC)c(O)c(OC)c2)cc(OC)c1O; target or system = PTGS2 (Homo sapiens, UniProt P35354); assay = enzyme activity, inhibitor; conditions = 1.95 µg/mL; measurement = inhibition; result = 59.3%
SMILES = C=CC(=O)N1CCC(COCC(=O)N2CCN(c3nc(-c4cnc(N)nc4C(F)F)nc(N4CCOC[C@@H]4C)n3)CC2)CC1; target or system = CDC42BPB (Homo sapiens, UniProt Q9Y5S2); assay = binding, competition with immobilised ligand; conditions = 1 µM; measurement = remaining binding; result = 100%
SMILES = CC[C@H](C)[C@H](NC(=O)[C@H](CCC(N)=O)NC(=O)[C@H](CC(C)C)NC(=O)[C@H](CCSC)NC(=O)[C@H](CCCCN)NC(=O)[C@H](CO)NC(=O)[C@H](CO)NC(=O)[C@H](CCSC)NC(=O)[C@H](CC(C)C)NC(=O)[C@H](CC(N)=O)NC(=O)[C@@H](NC(=O)[C@@H](NC(=O)[C@H](CO)NC(=O)[C@H](CC(C)C)NC(=O)[C@H](CS)NC(=O)[C@H](CCCNC(=N)N)NC(=O)[C@H](CC(=O)O)NC(=O)[C@H](Cc1c[nH]c2ccccc12)NC(=O)[C@H](Cc1ccccc1)NC(=O)[C@H](C)NC(=O)[C@H](CCC(=O)O)NC(=O)[C@@H](N)CCCCN)C(C)C)[C@@H](C)CC)C(=O)N[C@@H](CC(N)=O)C(=O)N[C@@H](C)C(=O)O; target or system = Cyclin-dependent kinase 5, with p35 (CDK5, Homo sapiens, UniProt Q00535); assay = enzyme activity, inhibitor, radiometric; conditions = 100 µM; measurement = inhibition; result = 29%
SMILES = CCCCC(=O)Nc1ccc(-c2ccc3ncn(CCC)c(=O)c3c2)cn1; target or system = ALK (Homo sapiens, UniProt Q9UM73); assay = binding, competition with immobilised ligand; conditions = 0.5 µM; measurement = remaining binding; result = 100%
SMILES = Nc1ccn([C@@H]2O[C@H](CO)[C@@H](O)C2(F)F)c(=O)n1; target or system = MDA-MB-231; assay = cell growth or viability, MTT; conditions = 0.039063 µg/mL, 48 h; measurement = viability; result = 93%

Some of these lines once more:
SMILES = O=C1c2c(O)cc(O)cc2O[C@H](c2cc(O)c(O)c(O)c2)[C@H]1O; target or system = USP51; assay = enzyme activity, inhibitor; conditions = 5 µM; measurement = inhibition; result = 100%
SMILES = CCCCC(=O)Nc1ccc(-c2ccc3ncn(CCC)c(=O)c3c2)cn1; target or system = ALK (Homo sapiens, UniProt Q9UM73); assay = binding, competition with immobilised ligand; conditions = 0.5 µM; measurement = remaining binding; result = 100%
